# Assay results gathered from unrelated publications.
# Every numbered part comes from another study and shows a few of its results, in no order.

# Sample 1
# Target: Myc proto-oncogene protein, bHLH-zipper, MAX partner unstated (MYC, Homo sapiens, UniProt P01106, residues 368-449)
# UniProt P01106, sequence (368-449, looked up): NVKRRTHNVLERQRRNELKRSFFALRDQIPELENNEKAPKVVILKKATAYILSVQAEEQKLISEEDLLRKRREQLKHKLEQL
# Method: protein-binding microarray
# Molecule type: double-stranded DNA, one strand shown
# Medium: in vitro
# Tested at: not given
# Setting: k-mer, scored over probes, only values ≥0.25
# Reading: higher = stronger binding
Sequence,E-score
CCTCGCAC,0.293
CGTGTAAG,0.302
AAGACACG,0.336
CGCGTGCC,0.45

# Sample 2
# Target: Histone acetyltransferase KAT6A, winged helix 1, GST fusion (KAT6A, Homo sapiens, UniProt Q92794, residues 1-85)
# Method: protein binding microarray
# Molecule type: double-stranded DNA, one strand shown
# Medium: in vitro
# Tested at: not given
# Setting: 8-mer, flanks averaged, mean of 2 arrays, mostly near background
# Reference: not given
# Reading: higher = stronger binding
# Target sequence (chain): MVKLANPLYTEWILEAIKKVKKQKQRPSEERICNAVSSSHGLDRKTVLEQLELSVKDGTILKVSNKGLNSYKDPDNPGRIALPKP
Sequence,E-score
CGTAATAA,0.105
CCAGTTGA,-0.175
ATGGACTC,0.0272
CTGAGTGC,-0.0887
CAAGACTG,-0.229
TTGGCAAA,-0.166
ATATCTTA,-0.204
ACGCGTCG,0.424
GCAACTAA,-0.0251
CTTTTAAC,-0.0265
TCCCGGAA,0.138
AATGTCAG,-0.147
AATCCCGG,0.23
CCACATAG,-0.0902
AGCTTGAT,-0.152
CAATTAGA,-0.217
CGGTGTCC,0.331
CGTAAGAA,0.0114
GAATTCTA,-0.104
AAGCTTCC,-0.126

# Sample 3
# Target: TAR DNA-binding protein 43, full length, His tag (TARDBP, Homo sapiens, UniProt Q13148, residues 1-414)
# Method: RNA Bind-n-Seq
# Molecule type: RNA
# Medium: in vitro
# Tested at: 20 nM
# Setting: 6-mer, flanks averaged, single round
# With: 150 mM KCl
# Reference: input library
# Reading: higher = stronger binding
Sequence,6-mer enrichment (R)
UUUAGU,0.658
GACCGA,0.879
UUUCAC,0.562
CACUUU,0.621
AAGUUA,0.597
GGACGU,1.56
UCAGUC,0.587
AACGUU,0.554
GGAUCC,0.889
CAAACA,0.633

# Sample 4
# Target: Sal-like protein 4, full length isoform B (SALL4, Homo sapiens, UniProt Q9UJQ4-2, residues 1-616)
# Method: universal PBM
# Molecule type: double-stranded DNA, one strand shown
# Medium: in vitro
# Tested at: not given
# Setting: 8-mer, flanks averaged, mean of replicates
# Reading: higher = stronger binding
Sequence,E-score
GCGCGGTA,-0.219
GGAGAGAC,-0.0823
CTCAACCC,-0.204
GTTGTGCA,-0.133
CACAAAAC,0.108

# Single results of other studies
Substance,target,test,test system,setting,scale,measurement,value
"PhoQ, residues 284 288 289 292 302 303 NSMLDC","PhoP, residues 12 14 15 18 19 LHHSG (Escherichia coli, UniProt P23836)","Sort-seq, refers to: YFP reporter",E. coli,"PhoQ-PhoP variant library, with: 10 µM Mg2+","reference: high Mg2+ state, higher = stronger signaling",fold induction,20.1

# For quick reference, copied from above (sample 3):
Sequence,6-mer enrichment (R)
GACCGA,0.879
UUUCAC,0.562
CACUUU,0.621
AAGUUA,0.597
GGACGU,1.56
